Assay results from different studies.
Each numbered part is a random draw from the data of one study; scales do not carry over between parts.
Chain of UniProt O00141 (whole entry, looked up): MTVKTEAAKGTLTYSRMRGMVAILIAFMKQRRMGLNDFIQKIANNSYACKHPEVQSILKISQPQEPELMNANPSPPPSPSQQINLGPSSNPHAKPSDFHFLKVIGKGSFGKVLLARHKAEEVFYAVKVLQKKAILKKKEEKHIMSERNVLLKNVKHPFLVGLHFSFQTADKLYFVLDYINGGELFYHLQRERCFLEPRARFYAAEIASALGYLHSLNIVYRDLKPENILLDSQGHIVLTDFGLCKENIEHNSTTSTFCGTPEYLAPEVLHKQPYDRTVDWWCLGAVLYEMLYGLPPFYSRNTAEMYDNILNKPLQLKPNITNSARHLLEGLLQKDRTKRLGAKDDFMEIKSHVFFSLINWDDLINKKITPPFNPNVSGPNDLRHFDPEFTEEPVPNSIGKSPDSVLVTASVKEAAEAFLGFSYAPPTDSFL
Chain of UniProt P57058 (whole entry, looked up): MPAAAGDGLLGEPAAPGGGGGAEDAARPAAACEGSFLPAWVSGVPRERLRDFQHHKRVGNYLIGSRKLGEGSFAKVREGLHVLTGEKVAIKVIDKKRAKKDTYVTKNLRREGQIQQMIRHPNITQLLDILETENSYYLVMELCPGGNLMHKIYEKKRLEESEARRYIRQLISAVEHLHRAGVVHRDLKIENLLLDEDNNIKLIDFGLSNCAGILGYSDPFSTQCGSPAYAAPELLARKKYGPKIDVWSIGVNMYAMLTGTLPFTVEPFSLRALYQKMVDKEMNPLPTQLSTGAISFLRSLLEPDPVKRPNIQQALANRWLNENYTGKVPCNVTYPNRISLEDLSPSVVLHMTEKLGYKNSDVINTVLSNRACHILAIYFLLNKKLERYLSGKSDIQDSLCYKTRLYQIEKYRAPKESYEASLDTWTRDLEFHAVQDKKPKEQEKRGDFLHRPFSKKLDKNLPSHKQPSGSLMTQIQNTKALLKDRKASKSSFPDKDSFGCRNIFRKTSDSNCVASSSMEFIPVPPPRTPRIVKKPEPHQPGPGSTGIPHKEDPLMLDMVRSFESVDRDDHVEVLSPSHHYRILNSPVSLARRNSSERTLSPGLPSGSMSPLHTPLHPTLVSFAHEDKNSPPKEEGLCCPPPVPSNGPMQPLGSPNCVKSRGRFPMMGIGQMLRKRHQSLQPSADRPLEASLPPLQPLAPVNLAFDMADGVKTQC
Chain of UniProt O75116 (whole entry, looked up): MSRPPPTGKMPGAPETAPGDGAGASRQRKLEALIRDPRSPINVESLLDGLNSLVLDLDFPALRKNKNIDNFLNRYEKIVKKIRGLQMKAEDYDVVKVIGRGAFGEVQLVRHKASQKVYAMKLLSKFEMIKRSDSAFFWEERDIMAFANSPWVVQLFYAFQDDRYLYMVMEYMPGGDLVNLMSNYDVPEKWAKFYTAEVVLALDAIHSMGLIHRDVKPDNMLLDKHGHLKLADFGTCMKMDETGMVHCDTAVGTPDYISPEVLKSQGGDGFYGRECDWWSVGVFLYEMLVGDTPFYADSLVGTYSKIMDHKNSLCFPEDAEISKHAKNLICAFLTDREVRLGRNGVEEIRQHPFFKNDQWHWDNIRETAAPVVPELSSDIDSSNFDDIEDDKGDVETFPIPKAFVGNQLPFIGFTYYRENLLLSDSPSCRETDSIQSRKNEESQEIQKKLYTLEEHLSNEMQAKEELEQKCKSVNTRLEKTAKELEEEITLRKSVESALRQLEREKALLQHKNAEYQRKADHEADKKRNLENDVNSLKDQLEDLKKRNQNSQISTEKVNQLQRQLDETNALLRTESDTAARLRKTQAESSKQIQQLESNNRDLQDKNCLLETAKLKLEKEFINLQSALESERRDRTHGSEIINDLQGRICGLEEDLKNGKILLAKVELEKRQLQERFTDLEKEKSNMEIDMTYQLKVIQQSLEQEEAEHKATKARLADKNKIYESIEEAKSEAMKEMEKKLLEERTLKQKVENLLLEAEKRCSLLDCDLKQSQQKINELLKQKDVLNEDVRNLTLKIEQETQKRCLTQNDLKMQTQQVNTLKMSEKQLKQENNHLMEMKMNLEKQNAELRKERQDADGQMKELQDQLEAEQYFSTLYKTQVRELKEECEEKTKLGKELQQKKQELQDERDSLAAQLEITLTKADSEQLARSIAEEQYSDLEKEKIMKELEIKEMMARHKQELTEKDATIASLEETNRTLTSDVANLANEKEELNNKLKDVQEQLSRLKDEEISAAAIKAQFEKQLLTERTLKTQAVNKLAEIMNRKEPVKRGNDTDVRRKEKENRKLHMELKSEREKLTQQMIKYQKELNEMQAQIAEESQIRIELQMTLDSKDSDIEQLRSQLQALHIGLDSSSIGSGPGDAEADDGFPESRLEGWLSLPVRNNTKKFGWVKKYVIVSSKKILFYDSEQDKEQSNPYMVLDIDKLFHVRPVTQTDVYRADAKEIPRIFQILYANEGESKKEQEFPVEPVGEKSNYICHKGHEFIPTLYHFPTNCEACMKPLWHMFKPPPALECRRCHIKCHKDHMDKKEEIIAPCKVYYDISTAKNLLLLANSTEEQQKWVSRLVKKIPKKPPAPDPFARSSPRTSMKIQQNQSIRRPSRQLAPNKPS
Chain of UniProt O43318 (whole entry, looked up): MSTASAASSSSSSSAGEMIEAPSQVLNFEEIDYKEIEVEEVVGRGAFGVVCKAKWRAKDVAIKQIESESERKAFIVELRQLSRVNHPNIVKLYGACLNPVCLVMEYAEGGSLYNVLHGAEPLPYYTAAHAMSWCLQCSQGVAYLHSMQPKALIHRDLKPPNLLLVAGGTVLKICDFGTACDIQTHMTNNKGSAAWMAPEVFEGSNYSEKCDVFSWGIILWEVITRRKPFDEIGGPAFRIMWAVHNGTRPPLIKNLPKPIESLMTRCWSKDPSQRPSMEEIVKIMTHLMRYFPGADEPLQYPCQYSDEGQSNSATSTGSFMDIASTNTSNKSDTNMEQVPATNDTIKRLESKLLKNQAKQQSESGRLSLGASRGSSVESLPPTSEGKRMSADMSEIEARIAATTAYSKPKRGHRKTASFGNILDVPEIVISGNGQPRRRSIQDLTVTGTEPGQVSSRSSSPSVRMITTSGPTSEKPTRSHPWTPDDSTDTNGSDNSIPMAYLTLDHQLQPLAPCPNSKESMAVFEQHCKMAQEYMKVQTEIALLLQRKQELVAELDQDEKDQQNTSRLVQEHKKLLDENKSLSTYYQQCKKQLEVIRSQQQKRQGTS
Chain of UniProt Q59H18 (whole entry, looked up): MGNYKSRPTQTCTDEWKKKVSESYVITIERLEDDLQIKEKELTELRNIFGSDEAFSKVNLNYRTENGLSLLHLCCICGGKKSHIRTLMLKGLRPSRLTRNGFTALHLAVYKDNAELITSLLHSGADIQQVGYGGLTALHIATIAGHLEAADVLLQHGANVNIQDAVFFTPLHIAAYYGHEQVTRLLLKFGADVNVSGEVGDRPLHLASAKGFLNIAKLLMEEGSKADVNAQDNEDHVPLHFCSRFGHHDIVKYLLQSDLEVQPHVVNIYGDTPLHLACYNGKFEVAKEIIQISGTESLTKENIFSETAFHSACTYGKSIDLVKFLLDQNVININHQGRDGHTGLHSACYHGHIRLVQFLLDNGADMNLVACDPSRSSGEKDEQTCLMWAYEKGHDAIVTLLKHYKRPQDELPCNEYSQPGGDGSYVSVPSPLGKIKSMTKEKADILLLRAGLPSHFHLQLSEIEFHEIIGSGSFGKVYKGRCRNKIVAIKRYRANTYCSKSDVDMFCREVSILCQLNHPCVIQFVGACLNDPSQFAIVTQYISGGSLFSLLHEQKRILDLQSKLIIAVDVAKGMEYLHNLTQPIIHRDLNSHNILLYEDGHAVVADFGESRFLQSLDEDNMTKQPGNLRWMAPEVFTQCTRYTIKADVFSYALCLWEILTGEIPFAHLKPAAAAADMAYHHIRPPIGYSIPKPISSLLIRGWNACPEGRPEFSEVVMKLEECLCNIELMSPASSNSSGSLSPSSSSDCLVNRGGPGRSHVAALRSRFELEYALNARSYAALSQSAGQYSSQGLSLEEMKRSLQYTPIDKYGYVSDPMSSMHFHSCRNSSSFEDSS

Series 1 — concentration: 1 µM
Structure (SMILES): Cc1ccc(NC(=O)c2ccnc(C(F)(F)F)c2)cc1-c1cc(OCCO)nc(N2CCOCC2)c1
Mitogen-activated protein kinase kinase kinase 7 (MAP3K7, Homo sapiens, UniProt O43318); competitive binding panel, refers to: TAK1; baseline: vehicle — remaining binding: 96%.
Serine/threonine-protein kinase TAO1 (TAOK1, Homo sapiens, UniProt Q7L7X3); competitive binding panel; baseline: vehicle — remaining binding: 95%.
The remaining binding was 50% (Inhibitor of nuclear factor kappa-B kinase subunit alpha (CHUK, Homo sapiens, UniProt O15111); competitive binding; IKK-alpha).
The remaining binding was 92% (Mitogen-activated protein kinase kinase kinase 5 (MAP3K5, Homo sapiens, UniProt Q99683); competitive binding panel, refers to: ASK1; baseline: vehicle).
The remaining binding was 62% (Serine/threonine-protein kinase TNNI3K (TNNI3K, Homo sapiens, UniProt Q59H18); competitive binding panel; baseline: vehicle).
Serine/threonine-protein kinase Sgk1 (SGK1, Homo sapiens, UniProt O00141); competitive binding; SGK — remaining binding: 97%.
For Serine/threonine-protein kinase 33 (STK33, Homo sapiens, UniProt Q9BYT3); competitive binding panel; baseline: vehicle: remaining binding read 97%.
It gave 91% for remaining binding (Serine/threonine-protein kinase 17A (STK17A, Homo sapiens, UniProt Q9UEE5); competitive binding panel, refers to: DRAK1; baseline: vehicle).
For Peripheral plasma membrane protein CASK (CASK, Homo sapiens, UniProt O14936); competitive binding panel; baseline: vehicle: remaining binding read 77%.
Mitotic checkpoint serine/threonine-protein kinase BUB1 (BUB1, Homo sapiens, UniProt O43683); competitive binding panel; baseline: vehicle — remaining binding: 100%.
Serine/threonine-protein kinase Nek5 (NEK5, Homo sapiens, UniProt Q6P3R8); competitive binding panel; baseline: vehicle — remaining binding: 89%.
It gave 100% for remaining binding (Cyclin-dependent kinase 8 (CDK8, Homo sapiens, UniProt P49336); competitive binding panel; baseline: vehicle).
Tyrosine-protein kinase ABL1 (ABL1, Homo sapiens, UniProt P00519); competitive binding, scanMAX; nonphosphorylated, 1000 nM — remaining binding: 58%.
Serine/threonine-protein kinase SIK1 (SIK1, Homo sapiens, UniProt P57059); competitive binding; SIK — remaining binding: 94%.
Tyrosine-protein kinase Fer (FER, Homo sapiens, UniProt P16591); competitive binding panel; baseline: vehicle — remaining binding: 89%.

Series 2 — cell line: Huh-7; concentration: 10 µM; time: 24 h
`CCCN(CCC)S(=O)(=O)c1ccc(C(=O)O)cc1` has a viability of 101%.
For `CC(=O)OC(C)C[N+](C)(C)C` (stereo not drawn), the viability was 98.9%.
`CO/N=C(\C(=O)N[C@@H]1C(=O)N2C(C(=O)OCOC(=O)C(C)(C)C)=C(/C=C\c3scnc3C)CS[C@H]12)c1csc(N)n1` has a viability of 96%.
`CC(O)(P(=O)(O)O)P(=O)(O)O` gave a viability of 104%.
`CC1(C)S[C@@H]2[C@H](NC(=O)[C@H](C(=O)O)c3ccsc3)C(=O)N2[C@H]1C(=O)O` has a viability of 99%.
With `c1ccc(CN(CC2=NCCN2)c2ccccc2)cc1` the viability was 91.7%.
`Nc1ccc(O)c(C(=O)O)c1` has a viability of 99.3%.
`C#C[C@]1(O)CC[C@H]2[C@@H]3CCC4=C(CCC(=O)C4)[C@H]3CC[C@@]21C` gave a viability of 79.5%.
The viability of `CN1CC(=O)N2[C@H](c3ccc4c(c3)OCO4)c3[nH]c4ccccc4c3C[C@@H]2C1=O` is reported as 96.7%.
`CCCCCCCCCCCCCCCCCCCCCCO` has a viability of 101%.
`CNC[C@H](O)c1ccc(O)c(O)c1` has a viability of 101%.
For `C#CCN(C)Cc1ccccc1`, the viability was 100%.

Series 3 — technique: competition with immobilised ligand; concentration: 1 µM
Structure (SMILES): O=C(O)[C@@H]1[C@@H](Cn2nnc3ccccc3c2=O)CC[C@H]1C(=O)c1ccc(OCCC2CCOCC2)cc1
It gave 100% for remaining binding (5'-AMP-activated protein kinase catalytic subunit alpha-2 (PRKAA2, Homo sapiens, UniProt P54646); cell-free assay).
NT-3 growth factor receptor (NTRK3, Homo sapiens, UniProt Q16288); cell-free assay — remaining binding: 86%.
The remaining binding was 97% (Serine/threonine-protein kinase N1 (PKN1, Homo sapiens, UniProt Q16512); cell-free assay).
The remaining binding was 100% (Protein kinase C epsilon type (PRKCE, Homo sapiens, UniProt Q02156); cell-free assay).
It gave 73% for remaining binding (Serine/threonine-protein kinase D2 (PRKD2, Homo sapiens, UniProt Q9BZL6); cell-free assay).
The remaining binding was 100% (Bone morphogenetic protein receptor type-1A (BMPR1A, Homo sapiens, UniProt P36894); binding).
For cGMP-dependent protein kinase 1 (PRKG1, Homo sapiens, UniProt Q13976); cell-free assay: remaining binding read 100%.
For Rho-associated protein kinase 2 (ROCK2, Homo sapiens, UniProt O75116); cell-free assay: remaining binding read 100%.
Receptor tyrosine-protein kinase erbB-3 (ERBB3, Homo sapiens, UniProt P21860); cell-free assay — remaining binding: 94%.
Calcium/calmodulin-dependent protein kinase type 1G (CAMK1G, Homo sapiens, UniProt Q96NX5); cell-free assay — remaining binding: 100%.
Calcium/calmodulin-dependent protein kinase type II subunit gamma (CAMK2G, Homo sapiens, UniProt Q13555); cell-free assay — remaining binding: 100%.
It gave 89% for remaining binding (Serine/threonine-protein kinase 16 (STK16, Homo sapiens, UniProt O75716); cell-free assay).
The remaining binding was 99% (Fibroblast growth factor receptor 4 (FGFR4, Homo sapiens, UniProt P22455); cell-free assay).
Serine/threonine-protein kinase PLK2 (PLK2, Homo sapiens, UniProt Q9NYY3); cell-free assay — remaining binding: 92%.
It gave 66% for remaining binding (Phosphatidylinositol 4,5-bisphosphate 3-kinase catalytic subunit beta isoform (PIK3CB, Homo sapiens, UniProt P42338); cell-free assay).
Hormonally up-regulated neu tumor-associated kinase (HUNK, Homo sapiens, UniProt P57058); cell-free assay — remaining binding: 100%.
For SRSF protein kinase 3 (SRPK3, Homo sapiens, UniProt Q9UPE1); cell-free assay: remaining binding read 100%.
The remaining binding was 92% (Ephrin type-A receptor 4 (EPHA4, Homo sapiens, UniProt P54764); cell-free assay).
Serine/threonine-protein kinase Sgk3 (SGK3, Homo sapiens, UniProt Q96BR1); cell-free assay — remaining binding: 100%.
It gave 99% for remaining binding (Cyclin-dependent kinase 11B (CDK11B, Homo sapiens, UniProt P21127); cell-free assay).
eIF-2-alpha kinase GCN2, C-terminal kinase domain (EIF2AK4, Homo sapiens, UniProt Q9P2K8, S808G); cell-free assay — remaining binding: 100%.
It gave 100% for remaining binding (Testis-specific serine/threonine-protein kinase 3 (TSSK3, Homo sapiens, UniProt Q96PN8); cell-free assay).
It gave 100% for remaining binding (Serine/threonine-protein kinase B-raf (BRAF, Homo sapiens, UniProt P15056, V600E); cell-free assay).
It gave 100% for remaining binding (Cyclin-dependent kinase 14 (CDK14, Homo sapiens, UniProt O94921); cell-free assay).

Series 4 — read-out: enzyme activity; mode: inhibitor; concentration: 0.5 µM; baseline: control
Target: Ephrin type-B receptor 2 (EPHB2, Homo sapiens, UniProt P29323)
Chain of UniProt P29323 (whole entry, looked up): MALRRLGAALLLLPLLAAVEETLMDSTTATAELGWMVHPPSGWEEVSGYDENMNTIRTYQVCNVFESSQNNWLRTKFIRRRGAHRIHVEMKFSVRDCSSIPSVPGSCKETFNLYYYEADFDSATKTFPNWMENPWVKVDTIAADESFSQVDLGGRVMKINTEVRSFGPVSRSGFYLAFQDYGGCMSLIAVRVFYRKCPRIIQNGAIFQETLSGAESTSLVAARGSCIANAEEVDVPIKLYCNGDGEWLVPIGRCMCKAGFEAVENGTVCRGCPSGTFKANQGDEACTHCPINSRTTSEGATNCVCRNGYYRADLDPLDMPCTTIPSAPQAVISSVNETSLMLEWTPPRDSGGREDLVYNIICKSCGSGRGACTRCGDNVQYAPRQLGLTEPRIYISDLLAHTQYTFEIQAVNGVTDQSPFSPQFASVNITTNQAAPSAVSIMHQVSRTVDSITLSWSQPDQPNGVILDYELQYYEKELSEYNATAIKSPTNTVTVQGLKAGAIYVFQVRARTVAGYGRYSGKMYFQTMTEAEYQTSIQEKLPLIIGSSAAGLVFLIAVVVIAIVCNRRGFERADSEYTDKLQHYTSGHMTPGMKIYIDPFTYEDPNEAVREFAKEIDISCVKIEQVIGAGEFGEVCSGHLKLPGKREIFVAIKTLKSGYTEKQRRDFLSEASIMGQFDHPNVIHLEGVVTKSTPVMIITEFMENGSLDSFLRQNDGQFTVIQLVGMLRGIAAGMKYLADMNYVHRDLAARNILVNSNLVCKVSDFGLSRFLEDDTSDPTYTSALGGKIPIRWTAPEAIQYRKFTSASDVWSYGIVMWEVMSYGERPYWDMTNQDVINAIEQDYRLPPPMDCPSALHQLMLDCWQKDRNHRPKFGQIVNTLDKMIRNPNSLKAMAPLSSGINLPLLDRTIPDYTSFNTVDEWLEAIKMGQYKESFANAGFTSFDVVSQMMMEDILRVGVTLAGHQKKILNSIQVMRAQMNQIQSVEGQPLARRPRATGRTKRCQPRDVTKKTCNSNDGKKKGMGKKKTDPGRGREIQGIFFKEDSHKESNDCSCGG
With `c1ccc(-c2[nH]ncc2-c2ccnc3ccccc23)nc1` the remaining activity was 103%.
For `COc1cc2ncnc(Nc3cccc(Cl)c3)c2cc1OC`, the remaining activity was 98.1%.
For `CCN(CC)CCNC(=O)c1c(C)[nH]c(/C=C2\C(=O)Nc3ccc(Cl)cc32)c1C`, the remaining activity was 87.5%.
With `Ic1cccc(CSc2nnc(-c3ccncc3)o2)c1` the remaining activity was 87.7%.
`CCN(CC)C(=O)c1ccc(Nc2nc(OCC3CCCCC3)c3[nH]cnc3n2)cc1` has a remaining activity of 93.7%.
`Cc1cn(-c2cc(NC(=O)c3ccc(C)c(Nc4nccc(-c5cccnc5)n4)c3)cc(C(F)(F)F)c2)cn1` gave a remaining activity of 1.55%.
For `CCN(CC)CCNC(=O)c1c(C)[nH]c(/C=C2\C(=O)Nc3ccc(F)cc32)c1C`, the remaining activity was 72.1%.
With `c1ccc(-c2cnc(Nc3ccc(OCCN4CCCC4)cc3)s2)cc1` the remaining activity was 75.6%.
For `O=C(NC(NC(=S)Nc1ccc(F)c([N+](=O)[O-])c1)C(Cl)(Cl)Cl)C(c1ccccc1)c1ccccc1` (stereo not drawn), the remaining activity was 101%.
`N#C/C(=C\c1ccc(O)c(O)c1)C(=O)NCc1ccccc1` has a remaining activity of 99.7%.
The remaining activity of `COc1cc2ncnc(Nc3ccc(O)c(Br)c3)c2cc1OC` is reported as 66.1%.
`O=c1cc(-c2cccc3c2Sc2ccccc2S3)oc(N2CCOCC2)c1` gave a remaining activity of 102%.
`COc1cc2c(cc1OC)-c1[nH]nc(Nc3cccc(F)c3)c1C2` gave a remaining activity of 94.8%.
With `CCOc1nc(NC(=O)Cc2cc(OC)ccc2OC)cc(N)c1C#N` the remaining activity was 97.6%.
With `Nc1cccc(-c2cc3c(Oc4cccc(O)c4)ncnc3[nH]2)c1` the remaining activity was 40.7%.
The remaining activity of `O=C1c2ccccc2-c2n[nH]c3cccc1c23` is reported as 100%.
`Cn1nc2c3c(cccc31)C(=O)c1ccccc1-2` has a remaining activity of 104%.
With `O=C1C(Cl)=C(N2C(=O)CCC2=O)C(=O)c2ccccc21` the remaining activity was 98.7%.
With `N#Cc1c(NC(=O)c2cccc3ccccc23)sc2c1CCCC2` the remaining activity was 97.5%.
The remaining activity of `CN(C)C[C@H]1CCn2c(c(C3=C(c4cn(C)c5ccccc45)C(=O)NC3=O)c3ccccc32)C1` is reported as 110%.
The remaining activity of `O=C(Nc1cccc(Nc2nccc(Nc3cccc(C(F)(F)F)c3)n2)c1)C1CC1` is reported as 97.8%.
With `C[C@@H]1CCN(C(=O)CC#N)C[C@@H]1N(C)c1ncnc2[nH]ccc12` the remaining activity was 100%.
`Cc1cc2ncc(-c3ccccc3)nc2cc1C` has a remaining activity of 96.7%.
With `Cc1nc2cc3nc(-c4cccs4)cnc3cc2n1C` the remaining activity was 101%.

A few entries again (series 3):
For cGMP-dependent protein kinase 1 (PRKG1, Homo sapiens, UniProt Q13976); cell-free assay: remaining binding read 100%.
For Rho-associated protein kinase 2 (ROCK2, Homo sapiens, UniProt O75116); cell-free assay: remaining binding read 100%.
Receptor tyrosine-protein kinase erbB-3 (ERBB3, Homo sapiens, UniProt P21860); cell-free assay — remaining binding: 94%.
Calcium/calmodulin-dependent protein kinase type 1G (CAMK1G, Homo sapiens, UniProt Q96NX5); cell-free assay — remaining binding: 100%.
Calcium/calmodulin-dependent protein kinase type II subunit gamma (CAMK2G, Homo sapiens, UniProt Q13555); cell-free assay — remaining binding: 100%.
It gave 89% for remaining binding (Serine/threonine-protein kinase 16 (STK16, Homo sapiens, UniProt O75716); cell-free assay).
The remaining binding was 99% (Fibroblast growth factor receptor 4 (FGFR4, Homo sapiens, UniProt P22455); cell-free assay).
Serine/threonine-protein kinase PLK2 (PLK2, Homo sapiens, UniProt Q9NYY3); cell-free assay — remaining binding: 92%.
It gave 66% for remaining binding (Phosphatidylinositol 4,5-bisphosphate 3-kinase catalytic subunit beta isoform (PIK3CB, Homo sapiens, UniProt P42338); cell-free assay).
